Results of several laboratories.
Several values in a cell are separate wells, animals, samples, runs or records. ± marks the error that the study gave.

Compound	tested on	test	system	conditions	how to read	measurement	result
N=C(N)NCCC[C@@H](NC(=O)[C@@H](N)Cc1ccccc1)C(=O)N[C@@H](Cc1ccccc1)C(=O)N[C@@H](CCCCN)C(N)=O		LC-MS	human	15 mg, 23.83 h		median amount excreted in urine	353000 ng
Cc1nonc1Cn1nnc2c(N3CC[C@H](O)C3)nc(C(C)(C)C)nc21			C57BL/6 mice	oral, 2.8 mg/kg		half-life	2.15 h
CC1CCCCN1CCCNC(=O)c1cc(Sc2ccc(Cl)cc2)nc2ccccc12 (stereo not shown)	Vero-E6	CellTiter-Glo ATP		concentration not given, 72 h, first round 5-point	baseline: DMSO 0%, hyamine -100%, more negative, more toxic	cytotoxicity efficacy	0%
COc1ncnn2ccc(-c3cnc4nc(C)n(Cc5nnc([C@@H](C)F)o5)c4c3)c12			human	oral, dose not given, grade 5		patients with fatigue	0%
CC(=O)c1c(C)c2cnc(Nc3ccc(C4CCN(CCS(C)(=O)=O)CC4)cn3)nc2n(C2CCCC2)c1=O			human, plasma	oral, 75 mg twice daily, day 1, single dose, with: letrozole		clearance	1890 mL/min
CCC[C@@](N)(CO)CCc1ccc(OCCCCCC(C)C)cc1			dog, male hounds, plasma	oral capsule, 20 mg/kg, geometric mean		Cmax	596 nM
C[C@]1(CO)Cc2ncn(-c3ccc(C#N)c(Cl)c3)c2C(=O)O1			human, Chinese, plasma	60 mg single dose, geometric mean		half-life	5.3 h
COc1cccc(Oc2ccccc2NC(=O)CNC(=O)c2cccc3ccccc23)c1			esterase-deficient SCID mice, male, blood	oral, 15 mg/kg/day, 14 days, toxicity study		mean corpuscular hemoglobin	14.8 pg and 15 pg and 14.9 pg
O=C(Nc1ccccc1)C1CCN(C(=O)Oc2cccnc2)CC1		adverse event reporting	healthy women	oral, 60 mg, 7 days		subjects with cold sweat	0%
Cn1cncc1-c1c(F)cncc1NC(=O)c1c(N)nn2cc(F)cnc12			human patients	oral, up to 40 mg once daily, 21 days		anaemia DLT	0%
COc1cc(C2C3=C(COC3=O)N(CCO)c3cc4c(cc32)CCC4)cc(OC)c1OC (stereo not shown)			female C57BL/6 mice	intraperitoneal, 400 mg/kg, 48 h, single dose, mean		body weight	20.7 g
CO[C@H]1C[C@@H]2CC[C@@H](C)[C@@](O)(O2)C(=O)C(=O)N2CCCC[C@H]2C(=O)O[C@H]([C@H](C)C[C@@H]2CC[C@@H](OC(=O)NCCOCCOCCOCCOCCOCCOCCOCCOCCC(=O)N3CCc4cc(Cn5nc(-c6ccc7oc(N)nc7c6)c6c(N)ncnc65)ccc4C3)[C@H](OC)C2)C[C@@H](O)[C@H](C)/C=C(\C)[C@@H](O)[C@@H](OC)C(=O)[C@H](C)C[C@H](C)/C=C/C=C/C=C/1C		phase 1 dose escalation, measured: neutropenia	advanced solid tumour patients	intravenous, 12 mg weekly, grade ≥3		dose-reducing adverse events	0%
C[C@]1(O)C[C@@](N)(c2ccc(-c3nc4n(c3-c3ccccc3)COc3ccncc3-4)cc2)C1			human, advanced or metastatic solid tumours	intermittent, dose escalation total, any grade		patients with Dyspnea TEAE	14.3%
CC[C@H](C)[C@H](NC(=O)[C@H](Cc1ccccc1)NC(=O)[C@H](CCC(=O)O)NC(=O)[C@H](CCCNC(=N)N)NC(=O)[C@H](C)NC(=O)[C@H](C)NC(=O)[C@H](CCC(N)=O)NC(=O)[C@H](CCC(=O)O)NC(=O)[C@H](CCC(=O)O)NC(=O)[C@H](CC(C)C)NC(=O)[C@H](Cc1ccc(O)cc1)NC(=O)[C@H](CO)NC(=O)[C@H](CO)NC(=O)[C@@H](NC(=O)[C@H](CC(=O)O)NC(=O)[C@H](CO)NC(=O)[C@@H](NC(=O)[C@H](Cc1ccccc1)NC(=O)[C@@H](NC(=O)CNC(=O)[C@H](CCC(=O)O)NC(=O)[C@H](C)NC(=O)CCc1cnc[nH]1)[C@@H](C)O)[C@@H](C)O)C(C)C)C(=O)N[C@@H](C)C(=O)N[C@@H](Cc1c[nH]c2ccccc12)C(=O)N[C@@H](CC(C)C)C(=O)N[C@H](C(=O)N[C@@H](CCCNC(=N)N)C(=O)NCC(=O)N[C@@H](CCCNC(=N)N)C(=O)N[C@@H](CCCCNC(=O)COCCOCCNC(=O)COCCOCCNC(=O)CC[C@H](NC(=O)CCCCCCCCCCCCCCCCC(=O)O)C(=O)O)C(=O)NCC(=O)NCC(=O)N[C@@H](CO)C(=O)N[C@@H](CCSC)C(=O)N[C@H](C(=O)N[C@@H](CCCCNc1c(NCCCCCN(O)C(=O)CCC(=O)NCCCCCN(O)C(=O)CCC(=O)NCCCCCN(O)C(C)=O)c(=O)c1=O)C(=O)O)C(C)C)C(C)C [zirconium-89 labelled]		ex vivo gamma counting	male Sprague-Dawley rats, colon	intravenous, 5 MBq (1 nmol), 24 h		tissue uptake	0.164 %ID/g and 0.155 %ID/g and 0.147 %ID/g
CCCCCCCCCCCCCCCC(=O)N[C@@H](CCC(=O)NCCCC[C@H](NC(=O)[C@H](CC(=O)O)NC(=O)[C@H](CO)NC(=O)[C@@H](NC(=O)[C@H](Cc1ccccc1)NC(=O)[C@@H](NC(=O)CNC(=O)[C@H](CCC(N)=O)NC(=O)[C@H](CO)NC(=O)[C@@H](N)Cc1c[nH]cn1)[C@@H](C)O)[C@@H](C)O)C(=O)N[C@@H](CO)C(=O)N[C@@H](CCC(=O)O)C(=O)N[C@@H](Cc1ccc(O)cc1)C(=O)N[C@@H](CC(C)C)C(=O)N[C@@H](CC(=O)O)C(=O)N[C@@H](CO)C(=O)N[C@@H](CCC(=O)O)C(=O)N[C@@H](CCCNC(=N)N)C(=O)N[C@@H](C)C(=O)N[C@@H](CCCNC(=N)N)C(=O)N[C@@H](CC(=O)O)C(=O)N[C@@H](Cc1ccccc1)C(=O)N[C@H](C(=O)N[C@@H](C)C(=O)N[C@@H](Cc1c[nH]c2ccccc12)C(=O)N[C@@H](CC(C)C)C(=O)N[C@@H](CCC(=O)O)C(=O)N[C@@H](C)C(=O)NCC(=O)NCC(=O)O)C(C)C)C(=O)O			human, CrCl < 20 mL/min	sc, 100 µg single dose		atrial fibrillation	0%
CC(C)(O)c1cc(Nc2cc(Oc3cn(C4CC4)nc3C3CCOCC3)ccn2)ccn1		Constipation	advanced cancer patients, dose escalation	oral, dose not given, 3 weeks on/1 off, all causality grade ≥3		treatment-emergent adverse events	0%

Compound	tested on	test	system	conditions	how to read	measurement	result
CC1(C)C(/C=C(\Cl)C(F)(F)F)C1C(=O)OC(C#N)c1cccc(Oc2ccccc2)c1 (stereo not shown)		measured: CYP3A4	human, age 6 months			enzyme contribution to clearance	0.94%
CCN1[C@@H](C(=O)NC23CCC(C(=O)O)(CC2)CC3)[C@H](c2cccc(Cl)c2F)[C@]2(C(=O)Nc3cc(Cl)ccc32)C12CCCCC2			patients with advanced solid tumours	oral, 200 mg		any-grade adverse event incidence	100%
N#C/N=C1\SCCN1Cc1ccc(Cl)nc1			soil	0 days, nominal 0.12		recovery	50%
CC(C)n1c(C2CCNCC2)nc2c([N+](=O)[O-])c(Br)c(Br)cc21		measured: Fasciitis	AML patients	125 mg		adverse events causing interruption	2%
C[C@@H](NC(=O)N1C(=O)[C@H](Cc2ccnc(N)c2)[C@H]1C(=O)O)C1CCCCC1			healthy adult Chinese volunteers	continuous intravenous infusion, 0.3 mg/kg/h, 5-day infusion, CTCAE 5.0 grading		incidence of mild AEs	50%
O=C(c1ccc(F)c(F)c1Nc1ccc(I)cc1F)N1CC(O)([C@@H]2CCCCN2)C1			human patients	oral, dose not given, dose escalation, suspension		adverse events of special interest	50%
CCc1ccc(CC/C=C/c2ccc3c(c2)C(=O)CC3)cc1			Sprague-Dawley rat, male	oral, 120 mg/kg/day, 14 days		ALT serum activity	86.7 U/L
O=S(=O)(Nc1ccccc1)c1ccc(NC(=S)Nc2ccccc2)cc1		measured: EO%	female mouse, blood	oral, 5 mg/kg daily, 14 days		blood cell fraction	0.67%
COc1cc2c(Oc3ccc4[nH]c(C)cc4c3F)ccnc2cc1OCC1(N)CC1			paediatric recurrent refractory sarcoma	12 mg		grade 1 or 2 abdominal pain	27.3%
O=C1CN=C(c2ccccc2)c2cc(/N=N/c3ccc(S(=O)(=O)O)cc3)ccc2N1		HPLC	DMSO	50 µM, with: 455 nm irradiation		trans isomer at photostationary state	82%
N.N.[Cl][Pt][Cl]			nude mice, serum	dose not given, 10 days		uric acid	7.3 ± 0.4 mg/dL
NCCCC[C@@H]1NC(=O)[C@@H](Cc2c[nH]c3ccccc23)NC(=O)[C@H](c2ccccc2)NC(=O)[C@@H]2C[C@@H](OC(=O)NCCN)CN2C(=O)[C@H](Cc2ccccc2)NC(=O)[C@H](Cc2ccc(OCc3ccccc3)cc2)NC1=O			healthy human volunteers	1950 µg twice daily		subjects with injection-site pain	45%
C=C(CN(C(=O)c1c(C(F)F)nn(C)c1F)C1CC1)c1ccc(Cl)cc1Cl		static acute toxicity test	zebrafish (Brachydanio rerio)	0.694 mg a.i./L, 6 h		mortality	0%
CCn1c2ccccc2c2cc(CN3CCN(Cc4cccc(Cl)c4)CC3)ccc21	Vero-E6	CellTiter-Glo ATP		concentration not given, 72 h, retest 8-point duplicates	baseline: DMSO 0%, hyamine -100%, more negative, more toxic	cytotoxicity efficacy	0%
C=CCNc1c(O)cc2c(O)c1C[C@@H](C)C[C@H](OC)[C@H](O)[C@@H](C)/C=C(\C)[C@H](OC(N)=O)[C@@H](OC)/C=C\C=C(/C)C(=O)N2			unresectable or metastatic STS, GIST, other	intravenous, 90 mg/m^2		patients with constipation TEAE	17%

Some of these lines once more:
Compound	tested on	test	system	conditions	how to read	measurement	result
Cn1cncc1-c1c(F)cncc1NC(=O)c1c(N)nn2cc(F)cnc12			human patients	oral, up to 40 mg once daily, 21 days		anaemia DLT	0%
COc1cc(C2C3=C(COC3=O)N(CCO)c3cc4c(cc32)CCC4)cc(OC)c1OC (stereo not shown)			female C57BL/6 mice	intraperitoneal, 400 mg/kg, 48 h, single dose, mean		body weight	20.7 g
CO[C@H]1C[C@@H]2CC[C@@H](C)[C@@](O)(O2)C(=O)C(=O)N2CCCC[C@H]2C(=O)O[C@H]([C@H](C)C[C@@H]2CC[C@@H](OC(=O)NCCOCCOCCOCCOCCOCCOCCOCCOCCC(=O)N3CCc4cc(Cn5nc(-c6ccc7oc(N)nc7c6)c6c(N)ncnc65)ccc4C3)[C@H](OC)C2)C[C@@H](O)[C@H](C)/C=C(\C)[C@@H](O)[C@@H](OC)C(=O)[C@H](C)C[C@H](C)/C=C/C=C/C=C/1C		phase 1 dose escalation, measured: neutropenia	advanced solid tumour patients	intravenous, 12 mg weekly, grade ≥3		dose-reducing adverse events	0%
